Experimental data of several laboratories.
Lines come from different studies, so protocols differ. ± marks the error that the study gave.
Sequence of UniProt P51957 (whole entry, looked up): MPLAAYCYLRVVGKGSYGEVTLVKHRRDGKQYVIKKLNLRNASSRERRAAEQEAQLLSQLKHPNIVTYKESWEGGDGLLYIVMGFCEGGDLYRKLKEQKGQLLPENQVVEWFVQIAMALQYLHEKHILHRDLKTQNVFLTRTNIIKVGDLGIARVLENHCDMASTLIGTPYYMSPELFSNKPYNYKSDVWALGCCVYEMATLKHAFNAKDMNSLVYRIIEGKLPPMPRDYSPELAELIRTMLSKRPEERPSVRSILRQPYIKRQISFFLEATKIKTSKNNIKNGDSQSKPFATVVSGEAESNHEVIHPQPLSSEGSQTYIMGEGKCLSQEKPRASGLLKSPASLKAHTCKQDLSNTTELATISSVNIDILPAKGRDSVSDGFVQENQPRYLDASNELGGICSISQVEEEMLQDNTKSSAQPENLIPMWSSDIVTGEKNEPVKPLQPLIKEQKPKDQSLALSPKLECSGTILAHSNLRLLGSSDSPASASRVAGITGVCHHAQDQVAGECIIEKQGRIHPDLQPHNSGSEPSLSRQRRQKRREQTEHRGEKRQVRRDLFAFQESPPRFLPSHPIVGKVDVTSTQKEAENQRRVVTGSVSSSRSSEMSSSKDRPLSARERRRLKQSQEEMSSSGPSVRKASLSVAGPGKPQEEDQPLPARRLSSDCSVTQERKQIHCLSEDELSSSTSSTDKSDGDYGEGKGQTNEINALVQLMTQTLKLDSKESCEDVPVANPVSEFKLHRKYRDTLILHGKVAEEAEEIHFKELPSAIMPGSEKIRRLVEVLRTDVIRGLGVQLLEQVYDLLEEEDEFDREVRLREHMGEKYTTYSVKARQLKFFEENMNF
Sequence of UniProt Q99623 (whole entry, looked up): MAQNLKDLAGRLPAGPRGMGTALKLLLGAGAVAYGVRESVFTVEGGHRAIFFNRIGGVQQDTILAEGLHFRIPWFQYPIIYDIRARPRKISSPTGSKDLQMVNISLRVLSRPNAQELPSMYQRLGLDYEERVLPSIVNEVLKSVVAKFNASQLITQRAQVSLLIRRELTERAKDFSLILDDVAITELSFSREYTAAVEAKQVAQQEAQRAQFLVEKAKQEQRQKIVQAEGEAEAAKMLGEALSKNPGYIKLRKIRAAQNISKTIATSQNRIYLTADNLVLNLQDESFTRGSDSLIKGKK
Sequence of UniProt P68402 (whole entry, looked up): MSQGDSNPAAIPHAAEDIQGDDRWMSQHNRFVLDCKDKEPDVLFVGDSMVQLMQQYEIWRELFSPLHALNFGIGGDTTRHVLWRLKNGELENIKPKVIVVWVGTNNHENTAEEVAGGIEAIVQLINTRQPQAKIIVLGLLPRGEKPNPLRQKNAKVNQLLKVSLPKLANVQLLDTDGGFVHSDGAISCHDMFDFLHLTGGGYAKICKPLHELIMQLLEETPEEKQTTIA
Sequence of UniProt Q13639 (whole entry, looked up): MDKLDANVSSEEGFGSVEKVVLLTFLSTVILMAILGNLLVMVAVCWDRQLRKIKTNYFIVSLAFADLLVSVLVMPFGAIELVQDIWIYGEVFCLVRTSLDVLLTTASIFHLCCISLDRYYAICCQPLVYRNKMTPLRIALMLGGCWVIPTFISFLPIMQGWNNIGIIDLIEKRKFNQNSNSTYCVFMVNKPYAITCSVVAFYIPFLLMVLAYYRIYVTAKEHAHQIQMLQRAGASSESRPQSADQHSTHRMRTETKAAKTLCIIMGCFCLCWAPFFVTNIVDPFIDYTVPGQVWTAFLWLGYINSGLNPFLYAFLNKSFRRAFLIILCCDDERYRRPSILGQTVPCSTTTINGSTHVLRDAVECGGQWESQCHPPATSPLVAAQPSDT

`Nc1ccn(C[C@@H](CO)OCP(=O)(O)O)c(=O)n1` has a CC50 of over 317 µM (African green monkey cells; 3 (unit not given)).
`C=C(C)[C@]12C[C@@H](C)[C@]34OC5(CCCCCCC[C@@H](C)[C@@H]6[C@@H]3[C@]3(O[C@]6(C)OC3=O)[C@H](O)[C@@]3(CO)O[C@H]3[C@H]4[C@H]1O5)O2` gave a CC50 of over 38.5 µM (MT4; CellTiter-Glo).
For `C[C@H]1CN(c2n[nH]c3nc(N[C@H]4CC[C@H](NS(=O)(=O)CCC(F)(F)F)CC4)ncc23)CCO1`, the relative abundance was 1.06 (Prohibitin-2 (PHB2, Homo sapiens, UniProt Q99623); inhibitor, Kinobeads competition profiling; 0.032 µM; reference: vehicle).
`Fc1ccc(-c2ccc(CN3CCN(c4cccc5ccoc45)CC3)[nH]2)cc1` gave a CC50 of over 2.5 µM (Huh-7-ACE2; 40 (unit not given)).
The CC50 of `N#Cc1ccc2c(c1)N(CCCN1CCC(O)CC1)c1ccccc1S2` is reported as 12.7 µM (African green monkey cells; 5 days).
For `C[C@]1(CO)Cc2ncn(-c3ccc(C#N)c(Cl)c3)c2C(=O)O1`, “subjects with drug-related orthostatic hypotension” read 0% (human; 20 mg single dose).
The tissue uptake of `C[C@@H](O)[C@@H](CO)NC(=O)[C@@H](CCCNC(=N)N)NC(=O)[C@@H]1CCCN1C(=O)[C@@H]1CSSC[C@H](NC(=O)[C@H](Cc2ccccc2)NC(=O)CN2CCN(CC(=O)O)CCN(CC(=O)O)CCN(CC(=O)O)CC2)C(=O)N[C@@H](Cc2ccc(O)cc2)C(=O)N[C@@H](Cc2ccccc2)C(=O)N[C@@H](CCC(N)=O)C(=O)N[C@@H](CC(N)=O)C(=O)N1` [gallium-68 labelled] is reported as 7.42 %ID/g (Wistar rat, kidneys; intravenous, 8 MBq, 30 min, group mean).
`COc1cc(Nc2ncc(F)c(Nc3ccc4c(n3)NC(=O)C(C)(C)O4)n2)cc(OC)c1OC` gave an IC50 of over 10 µM (5-hydroxytryptamine receptor 4 (HTR4, Homo sapiens, UniProt Q13639)).
`C=C(C)[C@@]12C[C@@H](COC(=O)c3ccccc3)[C@@]34OC5(O[C@@H]1[C@@H]3[C@@H]1O[C@]1(CO)[C@@H](O)[C@@]1(O)[C@H]4[C@H]([C@H](C)[C@@H]1OC(=O)c1ccccc1)[C@H](C)CCCCCC[C@H]5O)O2` has a CC50 of over 6.45 µM (MT4; cell viability).
The CC50 of `COc1ccc2cc(-c3cc(-c4cc(Cl)cc(Cl)c4)nn3[C@@H](C)c3ccc(C(=O)NCCC(=O)O)cc3)ccc2c1` is reported as 18.8 µM (African green monkey cells; 5 days).
`CC[C@H](NC(=O)[C@H](CS(=O)(=O)CC1CC1)N[C@@H](c1ccc(F)cc1)C(F)(F)F)C(=O)C(=O)NC1CC1` has a CC50 of over 2.5 µM (Huh-7-ACE2; 40 (unit not given)).
The CC50 of `O=c1cccc(O)c(O)c1O` is reported as 100 µM (HepDES19).
With `CC(C)(C)NC(=O)N[C@H](C(=O)N1C[C@H]2[C@@H]([C@H]1C(=O)NC(CC1CCC1)C(=O)C(N)=O)C2(C)C)C(C)(C)C` (stereo partly drawn) the CC50 was over 250 µM (293T; MTT; 24 h).
For `O=C(NC1CC1)c1cc(-c2ccoc2)ccc1OCCc1cccc(F)c1`, the CC50 was 26 ± 5 µM (HepG2; galactose medium; 3 (unit not given)).
`C[C@@H]1CS/C(=N\NC(=O)C(=O)[C@H](NC(=O)C2CCCCCC2)C2CCOCC2)N1C` has a CC50 of over 2.5 µM (Huh-7-ACE2; 40 (unit not given)).
With `COc1ccc(CCOc2ccc(-c3ccsc3)cc2C(N)=O)cc1F` the CC50 was 36 ± 24 µM (HepG2; galactose medium; 3 (unit not given)).
`CC[C@H](C)[C@@H]1NC(=O)[C@@H]2CCCN2C(=O)[C@H](CC(C)C)NC(=O)[C@H](CC(C)C)NC(=O)CNC(=O)[C@@H](NC(=O)[C@@H](NC(=O)[C@H](CC(=O)O)NC(=O)CNC(=O)[C@@H](NC(=O)[C@H](C)NC(=O)CNC(=O)[C@H](CCCCN)NC(=O)[C@H](CC(C)C)NC(=O)[C@H](CC(C)C)NC(=O)[C@H](CCCCN)NC(=O)CNC(=O)[C@@H](NC(=O)[C@@H](N)CC(C)C)C(C)C)C(C)C)C(C)C)CSSC[C@@H](C(=O)O)NC1=O` — result for “log2 fold change”: -1.79 (RNA-seq, measured: Fosl2; mouse, traumatic brain injury model, frontal cortex and hippocampus; dose not given; reference: TBI alone).
`Cc1cc(O[C@@H](CCC(F)(F)F)c2ccc(C(=O)NCCC(=O)O)cc2)cc(C)c1-c1ccc(C(C)(C)C)cc1` gave a CC50 of 10.4 µM (African green monkey cells; 5 days).
For `COc1ccc(-c2ccc(OCCc3cccc(F)c3)c(C(N)=O)c2)cc1`, the CC50 was over 100 µM (HepG2; galactose medium; 3 (unit not given)).
For `COc1ccc2cc1Oc1ccc(cc1)C[C@H]1c3cc(c(OC)cc3CCN1C)Oc1c(OC)c(OC)cc3c1[C@H](C2)N(C)CC3`, the CC50 was 1.1 µM (Huh-7-ACE2; 40 (unit not given)).
With `CCOC(=O)C1=C(CN2CCC[C@@H]2C(=O)Nc2ccc(B(O)O)cc2)NC(c2nccs2)=N[C@H]1c1ccc(F)cc1Br` the CC50 was 32 µM (HepDES19; MTS; 3 days).
For `C#Cc1ccc(OCCc2cccc(F)c2)c(C(N)=O)c1`, the CC50 was 63 ± 18 µM (HepG2; galactose medium; 3 (unit not given)).
For `CO[C@H]1C[C@@H]2CC[C@@H](C)[C@@](O)(O2)C(=O)C(=O)N2CCCC[C@H]2C(=O)O[C@H]([C@H](C)C[C@@H]2CC[C@@H](OC(=O)NCCOCCOCCOCCOCCOCCOCCOCCOCCC(=O)N3CCc4cc(Cn5nc(-c6ccc7oc(N)nc7c6)c6c(N)ncnc65)ccc4C3)[C@H](OC)C2)C[C@@H](O)[C@H](C)/C=C(\C)[C@@H](O)[C@@H](OC)C(=O)[C@H](C)C[C@H](C)/C=C/C=C/C=C/1C`, “decreased appetite incidence” read 0% (patients with advanced solid tumours; intravenous, 8 mg weekly, grade 3 or higher).
For `CC(C)CC(=O)OC[C@H]1O[C@@](C#N)(c2ccc3c(N)ncnn23)[C@H](O)[C@@H]1O`, the recovery was 74.9% (ATP-dependent translocase ABCB1 (ABCB1, Homo sapiens, UniProt P08183); basolateral to apical transport; Caco-2; 9 µM, 2 h).
`CC(=O)c1cc(-c2ccsc2)ccc1OCCc1cccc(F)c1` has a CC50 of 28 ± 1 µM (HepG2; galactose medium; 3 (unit not given)).
The CC50 of `CCCCCCCCCCCCCCCCOCCCOP(=O)(O)CO[C@H](CO)Cn1ccc(N)nc1=O` is reported as over 10 µM (African green monkey cells; 3 (unit not given)).
`COc1ccc(CCN2CCC(Nc3nc4ccccc4n3Cc3ccc(F)cc3)CC2)cc1` gave a CC50 of over 2.5 µM (Huh-7-ACE2; 40 (unit not given)).
For `O=C(Nc1cc(F)c(F)c(F)c1)c1ccc(F)c(S(=O)(=O)N2CCC(O)CC2)c1`, the CC50 was 23.4 ± 7 µM (HepDES19).
`NC(=O)c1cc(F)ccc1OCCc1cccc(F)c1` gave a CC50 of over 100 µM (HepG2; galactose medium; 3 (unit not given)).
`COc1ccc2c(c1)N(CCCN(C)C)c1ccccc1S2` gave a CC50 of 14.1 µM (African green monkey cells; 5 days).
For `CN(C)CCn1c(C(=O)N2CCN(c3ccccc3Cl)CC2)c(C(c2ccc(O)cc2)c2ccc(O)cc2)c2ccccc21`, the CC50 was over 2.5 µM (Huh-7-ACE2; 40 (unit not given)).
`COc1ccc(N2C(=O)N(c3c(C)cccc3Cl)Cc3cnc(Nc4ccc(C5CCN(C)CC5)cc4OC)nc32)nc1` gave an inhibition of -0.725% (Serine/threonine-protein kinase Nek4 (NEK4, Homo sapiens, UniProt P51957); kinase activity; 0.5 µM).
`O=C1c2c(O)c(=O)ccn2N([C@@H]2c3ccccc3SCc3c2ccc(F)c3F)[C@@H]2COCCN12` gave a Cmax of 56.5 ng/mL (BALB/c mouse; subcutaneous, 1 mg/kg q24h).
For `O=C(c1ccc(Cl)cc1)N1CCN2C(=O)N(OC(=O)N3CCOc4ccccc43)C(=O)C2C1` (stereo not drawn), the median ratio was 1.05 (Platelet-activating factor acetylhydrolase IB subunit alpha2 (Homo sapiens, UniProt P68402); enzyme activity, inhibitor, MS-based ABPP; SW-620 conditioned medium; 10 µM, 1 h, 37 °C; reference: compound over DMSO, lower = stronger inhibition).
For `CC(C)/N=c1\cc2n(-c3ccc(Cl)cc3)c3ccccc3nc-2cc1Nc1ccc(Cl)cc1`, the CC50 was over 2.5 µM (African green monkey cells; 40 (unit not given)).
For `COc1cc2c(Oc3ccc4[nH]c(C)cc4c3F)ccnc2cc1OCC1(N)CC1`, “grade 3 Thrombocytopenia” read 0% (paediatric recurrent refractory sarcoma; 8 mg).
For `NC(=O)c1cc(-c2ccsc2)cc(F)c1OCCc1cccc(F)c1`, the CC50 was 33 ± 3.9 µM (HepG2; 3 (unit not given), glucose medium).
`CC[C@@H](C(=O)[C@@H](C)[C@@H](O)[C@H](C)CCc1ccc(C)c(O)c1C(=O)O)[C@H]1O[C@](CC)([C@H]2CC[C@](O)(CC)[C@H](C)O2)C[C@@H]1C` has a CC50 of 5.37 µM (African green monkey cells; 5 days).
`C[C@@H]1CN(c2ncc(C(O)CO)cc2Cl)CCN1c1nc2c(-c3cc(F)c(F)c(F)c3)cc(C(F)(F)F)cc2[nH]1` (stereo partly drawn) has a CC50 of over 2.5 µM (Huh-7-ACE2; 40 (unit not given)).
`C=C1CC[C@@H]2[C@](C)(CO)[C@H](O)CC[C@@]2(C)[C@@H]1C/C=C1/C(=O)OC[C@H]1O` has a CC50 of 21.6 µM (African green monkey cells; 5 days).
For `NC(=O)c1cc(-c2ccoc2)cc(F)c1OCCc1cccc(F)c1`, the CC50 was 31 ± 5.5 µM (HepG2; galactose medium; 3 (unit not given)).
For `O=C1CCc2ccc(OCCCCN3CCN(c4cccc(Cl)c4Cl)CC3)cc2N1`, the CC50 was 11.4 µM (African green monkey cells; 5 days).
With `CNC(=O)[C@@]12C[C@@H]1[C@@H](n1cnc3c(NC)nc(C#Cc4ccc(Cl)s4)nc31)[C@H](O)[C@@H]2O` the CC50 was over 100 µM (Vero 76; cytotoxicity, neutral red).
For `c1ccc(C(c2ccccc2)N2CCN(CCCC3(c4ccccc4)OCCO3)CC2)cc1`, the CC50 was 17.4 µM (African green monkey cells; 5 days).
`CC[C@H](C)[C@H](NC(=O)[C@H](Cc1ccccc1)NC(=O)[C@H](CCC(=O)O)NC(=O)[C@H](CCCNC(=N)N)NC(=O)[C@H](C)NC(=O)[C@H](C)NC(=O)[C@H](CCC(N)=O)NC(=O)[C@H](CCC(=O)O)NC(=O)[C@H](CCC(=O)O)NC(=O)[C@H](CC(C)C)NC(=O)[C@H](Cc1ccc(O)cc1)NC(=O)[C@H](CO)NC(=O)[C@H](CO)NC(=O)[C@@H](NC(=O)[C@H](CC(=O)O)NC(=O)[C@H](CO)NC(=O)[C@@H](NC(=O)[C@H](Cc1ccccc1)NC(=O)[C@@H](NC(=O)CNC(=O)[C@H](CCC(=O)O)NC(=O)[C@H](C)NC(=O)CCc1c[nH]cn1)[C@@H](C)O)[C@@H](C)O)C(C)C)C(=O)N[C@@H](C)C(=O)N[C@@H](Cc1c[nH]c2ccccc12)C(=O)N[C@@H](CC(C)C)C(=O)N[C@H](C(=O)N[C@@H](CCCNC(=N)N)C(=O)NCC(=O)N[C@@H](CCCNC(=N)N)C(=O)N[C@@H](CCCCNC(=O)COCCOCCNC(=O)COCCOCCNC(=O)CC[C@H](NC(=O)CCCCCCCCCCCCCCCCC(=O)O)C(=O)O)C(=O)NCC(=O)NCC(=O)N[C@@H](CO)C(=O)N[C@@H](CCCCNc1c(NCCCCCN(O)C(=O)CCC(=O)NCCCCCN(O)C(=O)CCC(=O)NCCCCCN(O)C(C)=O)c(=O)c1=O)C(=O)O)C(C)C` [zirconium-89 labelled] has a tissue uptake of 0.18 %ID/g (gamma counting; rat, stomach-duodenum; subcutaneous, 3 nmol/kg, 4 h).

Some of these lines once more:
For `COc1cc2c(Oc3ccc4[nH]c(C)cc4c3F)ccnc2cc1OCC1(N)CC1`, “grade 3 Thrombocytopenia” read 0% (paediatric recurrent refractory sarcoma; 8 mg).
For `NC(=O)c1cc(-c2ccsc2)cc(F)c1OCCc1cccc(F)c1`, the CC50 was 33 ± 3.9 µM (HepG2; 3 (unit not given), glucose medium).
`CC[C@@H](C(=O)[C@@H](C)[C@@H](O)[C@H](C)CCc1ccc(C)c(O)c1C(=O)O)[C@H]1O[C@](CC)([C@H]2CC[C@](O)(CC)[C@H](C)O2)C[C@@H]1C` has a CC50 of 5.37 µM (African green monkey cells; 5 days).
`C[C@@H]1CN(c2ncc(C(O)CO)cc2Cl)CCN1c1nc2c(-c3cc(F)c(F)c(F)c3)cc(C(F)(F)F)cc2[nH]1` (stereo partly drawn) has a CC50 of over 2.5 µM (Huh-7-ACE2; 40 (unit not given)).
`C=C1CC[C@@H]2[C@](C)(CO)[C@H](O)CC[C@@]2(C)[C@@H]1C/C=C1/C(=O)OC[C@H]1O` has a CC50 of 21.6 µM (African green monkey cells; 5 days).
For `NC(=O)c1cc(-c2ccoc2)cc(F)c1OCCc1cccc(F)c1`, the CC50 was 31 ± 5.5 µM (HepG2; galactose medium; 3 (unit not given)).
